Experimental data from different studies.
Values joined by “and” are separate records of one study, mostly repeats; a detail may differ.
seM lacks anchor domain: seM lacks anchor domain (Streptococcus equi)

CCOP(=O)(OCC)Oc1ccc([N+](=O)[O-])cc1  EC10 (SH-SY5Y; neurite outgrowth, inhibitor; 24 h, nominal concentration): 190 µM
CCOc1nc(N)ncc1-c1cn([C@@H]2O[C@](F)(COC(=O)C(C)C)[C@@H](OC(=O)C(C)C)[C@H]2OC(=O)C(C)C)cn1  IC50 (Zaire ebolavirus; viral replication, reporter virus; Huh-7; 72 h): 85.6 µM
IgG7 K382Q (Equus caballus)  Ka (seM lacks anchor domain; SPR): 2.91e+06 M⁻¹
O=c1ccn([C@@H]2O[C@](F)(CO)[C@@H](O)[C@H]2O)c(=O)[nH]1  EC50 (Mammarenavirus lassaense; viral replication; HeLa, clade IV Josiah): 1 µM
IgG7 M252K (Equus caballus)  Ka (seM lacks anchor domain; SPR): 153000 M⁻¹
CNC(=O)C(C#N)(Cc1cc(Cl)cc2c1OCOC2)Cc1cc(Cl)cc2c1OCOC2  inhibition (MERS-CoV spike VSV pseudovirus; pseudovirus entry; 10 µM): 93%
COc1ncncc1-c1cn([C@@H]2O[C@](F)(CO[P@@](=O)(N[C@@H](C)C(=O)OC(C)C)Oc3ccccc3)[C@@H](OC(=O)C(C)C)[C@H]2OC(=O)C(C)C)cn1  IC50 (Zaire ebolavirus; viral replication, reporter virus; Huh-7; 72 h): 11.5 µM
COc1cc2ncnc(Nc3cccc(Cl)c3)c2cc1OC  infection (Monkeypox virus; viral infection; replication-deficient; 0.412 µM; reference: untreated): 109% and 90.3% and 98.1%

Repeated from above:
CCOc1nc(N)ncc1-c1cn([C@@H]2O[C@](F)(COC(=O)C(C)C)[C@@H](OC(=O)C(C)C)[C@H]2OC(=O)C(C)C)cn1  IC50 (Zaire ebolavirus; viral replication, reporter virus; Huh-7; 72 h): 85.6 µM
